# Assay results from different studies.
# A part holds a random share of what one study measured.

# Sample 1
# Target: Sal-like protein 4, full length isoform B (SALL4, Homo sapiens, UniProt Q9UJQ4-2, residues 1-616)
# Method: universal PBM
# Form: double-stranded DNA, one strand shown
# Matrix: in vitro
# Tested at: not given
# Setting: 8-mer, flanks averaged, mean of replicates
# Reading: higher = stronger binding
# Residues (chain): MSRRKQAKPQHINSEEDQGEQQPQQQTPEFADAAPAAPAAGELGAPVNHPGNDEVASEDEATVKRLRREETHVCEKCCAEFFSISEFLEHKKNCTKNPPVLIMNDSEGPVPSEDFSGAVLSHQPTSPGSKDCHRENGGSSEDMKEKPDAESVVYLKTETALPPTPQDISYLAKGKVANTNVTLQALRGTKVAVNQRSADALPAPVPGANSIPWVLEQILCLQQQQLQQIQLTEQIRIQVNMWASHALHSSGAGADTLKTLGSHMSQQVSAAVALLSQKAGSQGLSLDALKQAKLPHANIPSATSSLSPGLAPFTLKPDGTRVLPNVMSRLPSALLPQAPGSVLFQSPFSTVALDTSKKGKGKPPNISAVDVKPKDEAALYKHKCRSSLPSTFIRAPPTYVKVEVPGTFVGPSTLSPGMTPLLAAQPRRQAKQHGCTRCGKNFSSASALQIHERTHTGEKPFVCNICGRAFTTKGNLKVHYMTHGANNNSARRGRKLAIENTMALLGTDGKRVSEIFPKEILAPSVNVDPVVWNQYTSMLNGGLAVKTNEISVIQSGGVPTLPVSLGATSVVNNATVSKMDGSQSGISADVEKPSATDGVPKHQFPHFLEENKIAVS
Strand,E-score
GGTAAGCA,-0.0508
CTTCCTTA,0.0902
CGCTCCGC,-0.303
AAAAACAA,0.261

# Sample 2
# Target: Prothrombin, mature alpha-thrombin (F2, Homo sapiens, UniProt P00734)
# Method: aptamer microarray, sandwich
# Form: DNA with 2'F-ANA
# Matrix: in vitro
# Tested at: 200 nM
# Setting: whole 15-mer aptamer, many near background
# With: Cy3 exosite-II aptamer, 400 nM
# Reading: higher = stronger binding
Strand,mean fluorescence intensity [a.u.]
GGTTGGTGTGGTTGG (2'F-ANA at 2 4 5 7 11 14 15),245
GGTTGGTGTGGTTGG (2'F-ANA at 2 4 6 7 8 9 12 14),159
GGTTGGTGTGGTTGG (2'F-ANA at 1 2 6 7 8 12 14),70.3
GGTTGGTGTGGTTGG (2'F-ANA at 2 4 7 10 11 13 14),63.2

# Sample 3
# Target: Histone acetyltransferase KAT6A, winged helix 2, GST fusion (KAT6A, Homo sapiens, UniProt Q92794, residues 85-181)
# Method: protein binding microarray
# Form: double-stranded DNA, one strand shown
# Matrix: in vitro
# Tested at: not given
# Setting: 8-mer, flanks averaged, mean of 2 arrays, mostly near background
# Baseline: not given
# Reading: higher = stronger binding
# Construct (chain): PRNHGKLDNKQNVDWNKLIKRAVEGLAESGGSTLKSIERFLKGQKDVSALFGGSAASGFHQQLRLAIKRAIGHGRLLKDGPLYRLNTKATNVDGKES
Strand,E-score
TGGTGAAA,0.0208
ACTTAGGA,-0.0559
ACGACTTG,-0.119

# Other studies, line by line
Substance,target,assay,system,conditions,scale,endpoint,result
"PhoQ, residues 284 288 289 292 302 303 GANMMA","PhoP, residues 12 14 15 18 19 IQSYL (Escherichia coli, UniProt P23836)","Sort-seq, refers to: YFP reporter",E. coli,"PhoQ-PhoP variant library, with: 10 µM Mg2+","baseline: high Mg2+ state, higher = stronger signaling",fold induction,3.92

# A few entries again (sample 3):
Strand,E-score
ACTTAGGA,-0.0559
